{"data": "Measured values from different studies", "target": "Dual specificity mitogen-activated protein kinase kinase 1 (MAP2K1, Homo sapiens, UniProt Q02750)", "note": "Lines come from different studies, so protocols differ. Values joined by “and” are separate records of one study, mostly repeats; a detail may differ.", "sequence of UniProt Q02750 (whole entry, looked up)": "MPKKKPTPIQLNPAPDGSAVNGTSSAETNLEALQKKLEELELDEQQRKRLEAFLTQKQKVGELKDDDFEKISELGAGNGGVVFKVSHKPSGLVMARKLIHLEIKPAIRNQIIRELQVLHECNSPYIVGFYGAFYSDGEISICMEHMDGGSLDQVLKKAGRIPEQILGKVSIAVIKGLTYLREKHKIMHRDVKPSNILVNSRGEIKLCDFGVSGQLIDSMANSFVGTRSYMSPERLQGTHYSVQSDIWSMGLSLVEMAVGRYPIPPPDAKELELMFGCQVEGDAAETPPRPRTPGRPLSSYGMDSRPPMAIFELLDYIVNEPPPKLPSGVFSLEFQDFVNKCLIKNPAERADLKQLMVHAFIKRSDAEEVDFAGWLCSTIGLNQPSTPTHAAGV"}
{"SMILES": "C=CC(=O)N1CCc2ccc(-n3c(=O)ccc4cnc5ccc(-c6cnn(C)c6)cc5c43)cc21", "assay": "KINOMEscan", "conditions": "1 µM", "scale": "reference: DMSO control", "measurement": "remaining binding", "result": "99%"}
{"SMILES": "CNC(=O)C[C@H](Cc1ccc(C#N)cc1)NC(=O)c1cc(-c2ccc(CN[C@H](C)c3ccc(C)cc3)o2)ccc1Cl", "assay": "enzyme activity, inhibitor", "conditions": "1 µM", "measurement": "activity vs control", "result": "109%"}
{"SMILES": "CCOC(=O)c1ccc2n[nH]cc2c1", "assay": "thermal stability, DSF", "conditions": "500 µM", "measurement": "ΔTm", "result": "0.8 °C"}
{"SMILES": "CN1CCN(Cc2ccc(NC(=O)c3cccc(C#Cc4cnc(N)c5ncccc45)c3)cc2C(F)(F)F)CC1", "assay": "cell-free assay, competition with immobilised ligand", "conditions": "50 nM", "measurement": "remaining binding", "result": "76%"}
{"SMILES": "COc1cc(Nc2nccc(-c3cnn4nc(OC)ccc34)n2)cc(C(F)(F)F)c1", "assay": "binding, competition with immobilised ligand", "conditions": "1 µM", "measurement": "remaining binding", "result": "89%"}
{"SMILES": "CCN1CCN(Cc2ccc(C(=O)Nc3ccc(C)c(NCc4cnc5[nH]ccc5c4OC)c3)cc2C(F)(F)F)CC1", "assay": "binding, competition with immobilised ligand", "conditions": "1 µM", "measurement": "remaining binding", "result": "94%"}
{"SMILES": "Cc1cccc(-c2ccc3nc(NC(=O)C4CCCCC4)nn3c2)c1", "assay": "enzyme activity, Dundee kinase panel", "conditions": "10 µM", "measurement": "remaining activity", "result": "74%"}
{"SMILES": "COCC12C(=O)NC3C4(C(OC)CC1O)C1CC5(O)C(OC)C(O)C(OC(C)=O)(C1C5OC(=O)c1ccccc1)C3(O)C(OC)C24 (centres unmarked)", "assay": "kinase activity, inhibitor, ProQinase kinase profiling", "conditions": "25 µM", "scale": "reference: control", "measurement": "remaining activity", "result": "130% and 106%"}
{"SMILES": "Cc1nc2c(F)cc(-c3nc(Nc4ccc(CNC(=O)CCCCCCC(=O)NO)cc4)ncc3F)cc2n1C(C)C", "assay": "enzyme activity, inhibitor", "conditions": "1 µM", "measurement": "inhibition", "result": "54%"}
{"SMILES": "COc1c(OCCCN2CCOCC2)ccc2c1N=C(NC(=O)c1cnc(N)nc1)N1CCN=C21", "assay": "kinase activity, inhibitor", "conditions": "1 µM", "scale": "reference: untreated control", "measurement": "remaining activity", "result": "106%"}
{"SMILES": "O=C=[N][Ru-4]123([n]4c5ccc(O)cc5c5c6c(c7cc(F)c[n+]1c7c54)C(=O)NC6=O)[S+]1CC[S+]2CC[S+]3CC1 (centres unmarked)", "assay": "enzyme activity", "conditions": "100 nM, human enzyme, together with: 10 µM ATP", "scale": "reference: untreated", "measurement": "remaining activity", "result": "103%"}
{"SMILES": "COc1ccc(O)cc1-c1c[nH]c2ncc(-c3cncc(C(=O)N(C)C)c3)cc12", "assay": "binding, competition with immobilised ligand", "conditions": "0.2 µM", "measurement": "inhibition", "result": "5.5%"}
{"SMILES": "CN1CC[C@@H](COc2cnc(C#N)cc2-c2ccn3nc(NC(=O)C4CC4)cc3c2)C1", "assay": "enzyme activity, inhibitor", "conditions": "1 µM", "measurement": "inhibition", "result": "9%"}
{"SMILES": "Cc1ccc(-c2c(/C=C(\\C#N)C(=O)NC(C)C)n(CCCO)c3ncnc(N)c23)cc1", "assay": "cell-free assay, competition with immobilised ligand", "conditions": "1 µM", "measurement": "remaining binding", "result": "68%"}
{"SMILES": "COc1cc(-n2cc3cc(F)cc(C(N)=O)c3n2)cc(Cl)c1C1CC(O)(CCO)Cc2ccccc21 (centres unmarked)", "assay": "enzyme activity, inhibitor", "conditions": "10 µM", "measurement": "inhibition", "result": "0.85%"}
{"SMILES": "Nc1ncc2c(n1)-c1c([nH]c3ccc(C4=CCOCC4)cc13)CCC2", "assay": "binding, competition with immobilised ligand", "conditions": "1 µM", "measurement": "remaining binding", "result": "100%"}
{"SMILES": "NC(=O)[C@@H](O)C[C@H]1CCc2sc3ncnc(O[C@H]4CC[C@H](N5CCOCC5)CC4)c3c21", "assay": "enzyme activity, inhibitor", "conditions": "10 µM", "measurement": "inhibition", "result": "8%"}
{"note": "A few entries again:"}
{"SMILES": "COc1ccc(O)cc1-c1c[nH]c2ncc(-c3cncc(C(=O)N(C)C)c3)cc12", "assay": "binding, competition with immobilised ligand", "conditions": "0.2 µM", "measurement": "inhibition", "result": "5.5%"}
{"SMILES": "COc1c(OCCCN2CCOCC2)ccc2c1N=C(NC(=O)c1cnc(N)nc1)N1CCN=C21", "assay": "kinase activity, inhibitor", "conditions": "1 µM", "scale": "reference: untreated control", "measurement": "remaining activity", "result": "106%"}
